Measured values gathered from unrelated publications.
Lines come from different studies, so protocols differ. ± gives the spread as reported.
Fibroin-modulator-binding protein-1: Fibroin-modulator-binding protein-1 99-193 (Bombyx mori, UniProt Q5FBS0)
allR full length assumed: allR full length assumed (Escherichia coli, UniProt P0ACN4)
Sequence of UniProt P0ACN4 (whole entry, looked up): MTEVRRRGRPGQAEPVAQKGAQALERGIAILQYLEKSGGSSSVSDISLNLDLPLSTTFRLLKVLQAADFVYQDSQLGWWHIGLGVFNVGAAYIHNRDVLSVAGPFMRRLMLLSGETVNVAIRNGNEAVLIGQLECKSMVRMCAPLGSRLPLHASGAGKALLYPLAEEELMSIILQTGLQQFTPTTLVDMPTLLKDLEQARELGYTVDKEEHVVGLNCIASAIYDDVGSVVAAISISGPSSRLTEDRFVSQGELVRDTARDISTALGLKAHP
YAP1 full length assumed: YAP1 full length assumed (Saccharomyces cerevisiae, UniProt P19880)
Sequence of UniProt P19880 (whole entry, looked up): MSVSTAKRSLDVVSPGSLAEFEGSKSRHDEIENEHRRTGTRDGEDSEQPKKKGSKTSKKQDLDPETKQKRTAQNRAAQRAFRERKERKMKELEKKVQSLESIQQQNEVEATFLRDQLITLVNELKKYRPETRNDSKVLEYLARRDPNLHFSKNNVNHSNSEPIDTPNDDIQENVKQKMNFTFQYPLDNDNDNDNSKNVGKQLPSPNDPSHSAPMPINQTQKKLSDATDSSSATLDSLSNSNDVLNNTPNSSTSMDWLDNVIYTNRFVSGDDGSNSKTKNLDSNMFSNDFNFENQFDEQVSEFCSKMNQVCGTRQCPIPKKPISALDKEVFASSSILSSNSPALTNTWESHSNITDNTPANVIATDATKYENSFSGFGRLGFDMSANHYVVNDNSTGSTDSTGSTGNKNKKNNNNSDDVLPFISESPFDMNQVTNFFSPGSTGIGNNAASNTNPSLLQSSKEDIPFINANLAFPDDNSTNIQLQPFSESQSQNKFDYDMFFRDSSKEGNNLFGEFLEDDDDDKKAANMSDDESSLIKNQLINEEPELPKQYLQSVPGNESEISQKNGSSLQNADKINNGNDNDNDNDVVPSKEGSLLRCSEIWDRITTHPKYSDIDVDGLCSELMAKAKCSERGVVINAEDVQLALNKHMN
TARDBP: TARDBP 102-269 (Homo sapiens, UniProt Q13148)
RECQL: RECQL 49-616 (Homo sapiens, UniProt P46063)
Sequence of UniProt P46063 (whole entry, looked up): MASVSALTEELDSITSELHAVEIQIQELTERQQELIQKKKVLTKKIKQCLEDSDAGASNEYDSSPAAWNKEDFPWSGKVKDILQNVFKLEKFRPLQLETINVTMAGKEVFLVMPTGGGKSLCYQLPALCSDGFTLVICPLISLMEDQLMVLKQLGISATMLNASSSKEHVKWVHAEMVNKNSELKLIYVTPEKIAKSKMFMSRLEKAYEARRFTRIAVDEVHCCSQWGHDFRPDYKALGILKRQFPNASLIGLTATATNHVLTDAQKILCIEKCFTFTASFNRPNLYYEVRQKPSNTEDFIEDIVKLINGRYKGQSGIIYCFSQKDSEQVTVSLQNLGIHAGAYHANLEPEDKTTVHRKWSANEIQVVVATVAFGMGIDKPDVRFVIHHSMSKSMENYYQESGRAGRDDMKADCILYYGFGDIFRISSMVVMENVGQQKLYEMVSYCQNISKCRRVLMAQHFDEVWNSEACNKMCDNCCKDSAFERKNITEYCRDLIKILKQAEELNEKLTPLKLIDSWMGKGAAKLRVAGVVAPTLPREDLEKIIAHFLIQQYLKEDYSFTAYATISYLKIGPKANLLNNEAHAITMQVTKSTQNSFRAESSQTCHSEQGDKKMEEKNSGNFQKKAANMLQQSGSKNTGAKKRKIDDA
SPT15/TOA1/TOA2/SUA7 1-240; 1-286; 1-122; 1-345: SPT15/TOA1/TOA2/SUA7 1-240; 1-286; 1-122; 1-345 (Saccharomyces cerevisiae)
Sequence of UniProt Q8N884 (whole entry, unmodified, looked up): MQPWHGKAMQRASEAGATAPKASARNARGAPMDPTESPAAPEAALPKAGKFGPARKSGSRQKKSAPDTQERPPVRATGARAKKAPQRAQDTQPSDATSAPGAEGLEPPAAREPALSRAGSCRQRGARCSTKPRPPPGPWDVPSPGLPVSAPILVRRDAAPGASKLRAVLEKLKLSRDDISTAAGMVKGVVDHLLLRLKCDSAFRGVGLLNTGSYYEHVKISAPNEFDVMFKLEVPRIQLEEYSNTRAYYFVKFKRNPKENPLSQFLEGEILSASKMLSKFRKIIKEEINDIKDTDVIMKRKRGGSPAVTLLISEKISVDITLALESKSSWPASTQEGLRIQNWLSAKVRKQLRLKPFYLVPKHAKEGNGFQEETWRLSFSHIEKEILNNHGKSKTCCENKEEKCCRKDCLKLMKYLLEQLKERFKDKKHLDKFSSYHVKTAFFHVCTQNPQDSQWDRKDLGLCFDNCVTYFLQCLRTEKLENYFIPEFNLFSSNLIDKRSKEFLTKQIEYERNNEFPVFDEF
Sequence of UniProt P32787 (whole entry, unmodified, looked up): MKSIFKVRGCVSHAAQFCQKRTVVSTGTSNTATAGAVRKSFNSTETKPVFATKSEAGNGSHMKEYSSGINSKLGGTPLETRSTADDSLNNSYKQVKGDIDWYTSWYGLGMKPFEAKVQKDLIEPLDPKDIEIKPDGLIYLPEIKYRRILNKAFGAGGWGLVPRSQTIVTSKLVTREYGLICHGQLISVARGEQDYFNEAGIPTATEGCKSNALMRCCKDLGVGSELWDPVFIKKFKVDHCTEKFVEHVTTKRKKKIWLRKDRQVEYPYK
Sequence of UniProt Q9SP32 (whole entry, looked up): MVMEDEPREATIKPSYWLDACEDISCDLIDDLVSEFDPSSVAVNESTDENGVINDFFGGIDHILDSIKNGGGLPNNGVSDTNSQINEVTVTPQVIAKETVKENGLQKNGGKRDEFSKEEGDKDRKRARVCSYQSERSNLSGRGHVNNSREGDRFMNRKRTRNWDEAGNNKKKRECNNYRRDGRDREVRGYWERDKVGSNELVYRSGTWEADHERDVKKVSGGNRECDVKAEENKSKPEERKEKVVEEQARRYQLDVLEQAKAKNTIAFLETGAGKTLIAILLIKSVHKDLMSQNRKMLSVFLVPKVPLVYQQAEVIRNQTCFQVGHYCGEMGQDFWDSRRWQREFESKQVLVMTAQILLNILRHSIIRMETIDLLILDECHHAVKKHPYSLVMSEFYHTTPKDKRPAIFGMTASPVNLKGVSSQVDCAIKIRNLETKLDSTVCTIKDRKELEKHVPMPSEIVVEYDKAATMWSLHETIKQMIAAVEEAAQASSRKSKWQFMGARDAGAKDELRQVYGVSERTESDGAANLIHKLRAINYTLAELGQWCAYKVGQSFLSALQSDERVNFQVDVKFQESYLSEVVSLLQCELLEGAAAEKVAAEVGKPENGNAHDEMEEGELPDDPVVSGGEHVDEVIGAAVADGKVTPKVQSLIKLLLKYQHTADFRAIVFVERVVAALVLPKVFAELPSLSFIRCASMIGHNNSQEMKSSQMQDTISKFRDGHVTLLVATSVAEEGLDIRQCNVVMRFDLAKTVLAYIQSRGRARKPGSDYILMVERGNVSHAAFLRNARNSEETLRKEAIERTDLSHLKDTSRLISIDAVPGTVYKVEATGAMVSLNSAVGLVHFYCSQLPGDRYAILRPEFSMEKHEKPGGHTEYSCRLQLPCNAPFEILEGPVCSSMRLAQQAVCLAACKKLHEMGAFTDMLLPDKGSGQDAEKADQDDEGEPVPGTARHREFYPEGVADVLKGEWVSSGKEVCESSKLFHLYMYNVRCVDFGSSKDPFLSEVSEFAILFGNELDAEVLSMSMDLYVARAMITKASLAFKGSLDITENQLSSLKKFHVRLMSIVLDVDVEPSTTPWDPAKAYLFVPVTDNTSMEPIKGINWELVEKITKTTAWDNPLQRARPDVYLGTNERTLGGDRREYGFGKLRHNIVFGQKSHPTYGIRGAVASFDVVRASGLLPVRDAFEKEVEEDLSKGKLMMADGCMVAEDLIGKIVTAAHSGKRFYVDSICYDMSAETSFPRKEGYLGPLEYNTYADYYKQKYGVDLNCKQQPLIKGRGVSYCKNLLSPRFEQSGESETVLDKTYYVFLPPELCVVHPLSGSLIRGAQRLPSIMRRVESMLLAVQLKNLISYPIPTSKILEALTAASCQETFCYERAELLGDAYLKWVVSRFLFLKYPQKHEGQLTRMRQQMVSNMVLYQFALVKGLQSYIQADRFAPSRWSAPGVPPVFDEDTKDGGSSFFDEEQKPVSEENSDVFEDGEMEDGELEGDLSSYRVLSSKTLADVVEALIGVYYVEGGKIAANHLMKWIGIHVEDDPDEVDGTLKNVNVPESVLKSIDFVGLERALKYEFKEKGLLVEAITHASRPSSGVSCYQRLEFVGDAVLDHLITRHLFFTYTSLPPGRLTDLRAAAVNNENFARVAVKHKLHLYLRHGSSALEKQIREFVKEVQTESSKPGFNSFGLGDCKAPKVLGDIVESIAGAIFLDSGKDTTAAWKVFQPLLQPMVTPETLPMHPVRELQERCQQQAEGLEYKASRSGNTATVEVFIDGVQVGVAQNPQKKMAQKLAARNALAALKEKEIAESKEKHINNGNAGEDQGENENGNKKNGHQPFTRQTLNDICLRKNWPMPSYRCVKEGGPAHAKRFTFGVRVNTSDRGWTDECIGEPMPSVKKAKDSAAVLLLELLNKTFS
Sequence of UniProt P0A7G6 (whole entry, unmodified, looked up): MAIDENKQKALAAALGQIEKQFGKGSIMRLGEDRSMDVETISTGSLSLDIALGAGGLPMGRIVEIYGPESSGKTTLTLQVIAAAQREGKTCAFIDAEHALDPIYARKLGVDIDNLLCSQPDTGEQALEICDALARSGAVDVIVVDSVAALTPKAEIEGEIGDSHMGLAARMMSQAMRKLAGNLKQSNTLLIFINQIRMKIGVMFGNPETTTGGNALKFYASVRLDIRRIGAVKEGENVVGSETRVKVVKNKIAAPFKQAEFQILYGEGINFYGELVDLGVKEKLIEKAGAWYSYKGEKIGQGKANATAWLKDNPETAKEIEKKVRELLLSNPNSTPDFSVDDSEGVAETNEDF
Sequence of UniProt P13500 (whole entry, looked up): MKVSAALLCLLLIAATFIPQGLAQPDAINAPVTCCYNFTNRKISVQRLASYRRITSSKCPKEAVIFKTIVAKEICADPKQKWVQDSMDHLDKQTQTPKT

| Oligonucleotide | target | test | test system | setting | Kd [nM] |
| --- | --- | --- | --- | --- | --- |
| CGCGCG (XNA; fully LNA blunt duplex) | ADAR 133-199 (Homo sapiens, UniProt P55265) | NMR | modified nucleic acid, one strand shown |  | 7330 ± 3320 |
| GGGCUGCUGUGGCAUUUCGAUGCUGCAUCGGC (structured RNA) | DCL1 1732-1811 (Arabidopsis thaliana, UniProt Q9SP32) | fluorescence polarisation | folded RNA |  | 8900 ± 900 |
| CACTCTGACGTCACACTC (dsDNA) | ATF4 1-351 (Homo sapiens, UniProt P18848) | fluorescence polarization | double-stranded DNA, one strand shown | one-site model, dimer, added: Mg2+ 10 mM | 190 ± 20 |
| CGCCGCCTAAGGCGATGGCGGTAGCCA (DNA stem-loop; stem-loop) | CCL2 24-99 (Homo sapiens, UniProt P13500) | BLI | folded DNA |  | 3.98 |
| AGGTAGGTAGGT (dsDNA) | Fibroin-modulator-binding protein-1 | ITC | double-stranded DNA, one strand shown |  | 4420 ± 705 |
| GTAAAGTAGGAACGGTATTAATAGAAATGATACTAAAGTACGAAATAATAAACTGGAATTT (dsDNA) | allR full length assumed | BLI | double-stranded DNA, one strand shown |  | 139 |
| CGCTGATCACGTGATGACGTGATTACGTGCAGACGTGCATACGTGCCCACGTGCCCTCCGGCGGTATGAC (dsDNA) | YAP1 full length assumed | MITOMI | double-stranded DNA, one strand shown | not purified | 8000 ± 1000 |
| TTTTTTTTTTTTTTTTTTTTTTTTTTTTTTTTTTTTTTTTTTTTTTTTTTTTTTTTTTTTTTTTTTTTTT (ssDNA) | RAD51 full length assumed Y253K (Saccharomyces cerevisiae, UniProt P25454) | fluorescence anisotropy | single-stranded DNA | apparent, Hill fit, added: ATP | 710 ± 70 |
| GCATGGGCGGCATGAACCG (dsDNA; blunt; O6-POB-G; one strand modified C) | MGMT full length assumed C145A (Homo sapiens, UniProt P16455) | stopped-flow fluorescence | double-stranded DNA, one strand shown | 5 °C, apparent | 560 ± 40 |
| GAAGATGCCGCGAAAATTCTTTCCTTTGGCGCGGATAAAATTTCCATCAACTCTCCTGCGC (dsDNA) | allR full length assumed | BLI | double-stranded DNA, one strand shown |  | 45.9 |
| TAAGACACGATGCGATAAAATCTGTTTGTAAAATTTATTAAGGGTACAAATTGCCCTAGC (dsDNA) | CGAS 1-522 K394E (Homo sapiens, UniProt Q8N884) | fluorescence anisotropy | double-stranded DNA, one strand shown |  | 98.9 ± 3.82 |
| ATTTATATTATTTATTCATATTTATATTTA (ssDNA) | APOBEC3F full length assumed D311A (Homo sapiens, UniProt Q8IUX4) | EMSA | single-stranded DNA |  | 1800 ± 425 |
| TTCTACGAGATCGTCATGAC (ssDNA) | recA full length assumed E39K (Escherichia coli, UniProt P0A7G6) | BLI | single-stranded DNA | added: ATPgS | 140 |
| AGCAACACCG (ssRNA) | TARDBP | BLI | RNA |  | 1320 ± 350 |
| GGATCTCGACGCTCTCCCTT (dsDNA) | RECQL | fluorescence anisotropy | double-stranded DNA, one strand shown | Mg2+ 5 mM, without ADPNP | 589 ± 62 |
| TCCTGAAGGGACGCCCTAGCTTGGTCCTATCGTCGTCAAGTCAATCGGTCC (dsDNA; 5'-amino-C6 primer) | SPT15/TOA1/TOA2/SUA7 1-240; 1-286; 1-122; 1-345 | array | double-stranded DNA, one strand shown | TBP:TFIIA:TFIIB ternary complex | 5.83 ± 2.46 |
| GAGGGAGGGAGG (dsDNA) | Fibroin-modulator-binding protein-1 | ITC | double-stranded DNA, one strand shown |  | 10100 |
| GUGUGAAUGAAU (ssRNA) | TARDBP | BLI | RNA |  | 4 ± 0.9 |
| DNA 1 TGGGTGGGTAGGGTGGGTAGGGGAGGAT / DNA 2 ATCCTCCCCTA (DNA; intramolecular parallel G4, 5' overhang, 11-bp duplex) | REV1 330-833 M656V (Homo sapiens, UniProt Q9UBZ9) | FP | folded DNA | KCl 100 mM | 4 ± 0.7 |
| CTGAAGGGGGGGCTATAAAAGTTAGTGGGGGCTCCTCAAGTCAATCGGTCC (dsDNA; 5'-amino-C6 primer) | SPT15/TOA1/TOA2/SUA7 1-240; 1-286; 1-122; 1-345 | array | double-stranded DNA, one strand shown | TBP:TFIIA:TFIIB ternary complex | 1.12 ± 0.36 |
| TGAATGAATGAA (dsDNA) | Fibroin-modulator-binding protein-1 | ITC | double-stranded DNA, one strand shown |  | 673 ± 31.6 |
| TCCTGAAGGGGCGCATATAAAAGGTCCTATCGTCGTCAAGTCAATCGGTCC (dsDNA; 5'-amino-C6 primer) | SPT15/TOA1/TOA2/SUA7 1-240; 1-286; 1-122; 1-345 | array | double-stranded DNA, one strand shown | TBP:TFIIA:TFIIB ternary complex | 1.7 ± 0.2 |
| CUCCCUCUCCCUAA (XNA; single strand, 2'-OMe, phosphorothioate backbone) | MATR3 1-847 (Homo sapiens, UniProt P43243) | fluorescence polarization | modified nucleic acid | apparent | 166 ± 60 |

| Oligonucleotide | target | test | test system | setting | Kd [nM] |
| --- | --- | --- | --- | --- | --- |
| TCCTGAAGGAGCGCCTATAAAAGGTCCTATCGTCGTCAAGTCAATCGGTCC (dsDNA; 5'-amino-C6 primer) | SPT15/TOA1/TOA2/SUA7 1-240; 1-286; 1-122; 1-345 | array | double-stranded DNA, one strand shown | TBP:TFIIA:TFIIB ternary complex | 2.37 ± 0.4 |
| CGCGGGAATTAGGTAATTAGTCAATTAGTGAATTAGTTAATTATACAATTATAGACTCCGGCGGTATGAC (dsDNA) | YAP1 full length assumed | MITOMI | double-stranded DNA, one strand shown | not purified | 1800 ± 100 |
| AAAGAAAGAAAGAAAGAAAGAAAG (ssRNA) | CGAS 161-522 (Homo sapiens, UniProt Q8N884) | fluorescence anisotropy | RNA |  | 1520 ± 280 |
| DNA 1 CACTGGCCGTCTTACGGTCGCTCTGCTCGACG / DNA 2 CGACCGTAAGACGGCCAGTG (dsDNA; 20 bp, 3' 12 nt overhang) | RECQL 63-592 K171A (Bos taurus, UniProt A0JN36) | fluorescence anisotropy | double-stranded DNA | added: Mg2+ 3 mM | 17.9 ± 5.9 |
| TCGGCTGGGAGGGGAGGTGTAGCCGGTCTTTGGGGTCAAGTCAATCGGTCC (dsDNA; 5'-amino-C6 primer) | SPT15/TOA1/TOA2/SUA7 1-240; 1-286; 1-122; 1-345 | array | double-stranded DNA, one strand shown | TBP:TFIIA:TFIIB ternary complex | 5.87 ± 1.93 |
| UAUUAUAU (ssRNA) | Rc3h1 411-454 (Mus musculus, UniProt Q4VGL6) | ITC | RNA | added: Zn2+ | 14000 ± 800 |
| CCGGCCGGCCGG (dsDNA) | Fibroin-modulator-binding protein-1 | ITC | double-stranded DNA, one strand shown |  | 5380 ± 873 |
| CACCATCCACTAC / ATGTAGTTGTAGTGGATGGTGGTAC (dsDNA; primer-template) | POLH 1-432 C227Y (Homo sapiens, UniProt Q9Y253) | fluorescence polarization |  | added: MgCl2 5 mM | 5.1 ± 0.4 |
| CGGGCGGGCGGG (dsDNA) | Fibroin-modulator-binding protein-1 | ITC | double-stranded DNA, one strand shown |  | 6160 |
| TAAGACACGATGCGATAAAATCTG (dsDNA) | CGAS 1-522 (Homo sapiens, UniProt Q8N884) | fluorescence anisotropy | double-stranded DNA, one strand shown |  | 80 ± 5.6 |
| AGCAAGCAAGCA (dsDNA) | Fibroin-modulator-binding protein-1 | ITC | double-stranded DNA, one strand shown |  | 15800 |
| CTGCTGGAAACGCCGCGGTCAGCTCGGCTGCTGC (dsDNA) | EWSR1 454-656 (Homo sapiens, UniProt Q01844) | EMSA | double-stranded DNA, one strand shown |  | 279 ± 50 |
| CACGCACGCACG (dsDNA) | Fibroin-modulator-binding protein-1 | ITC | double-stranded DNA, one strand shown |  | 7570 ± 904 |
| ACAACAGACACACGAAGGTATAAAAATAAAATACATCAAGTCAATCGGTCC (dsDNA; 5'-amino-C6 primer) | SPT15/TOA1/TOA2/SUA7 1-240; 1-286; 1-122; 1-345 | array | double-stranded DNA, one strand shown | TBP:TFIIA:TFIIB ternary complex | 17.4 ± 15.5 |
| GGTGGGTGGGTG (dsDNA) | Fibroin-modulator-binding protein-1 | ITC | double-stranded DNA, one strand shown |  | 7270 |
| AAAGAAAGAAAGAAAGAAAGAAAGAAAGAAAGAAAGAAAGAAAGAAAGAAAGAAAGAAAG (ssRNA) | CGAS 161-522 (Homo sapiens, UniProt Q8N884) | fluorescence anisotropy | RNA |  | 597 ± 377 |
| TTGACAAAATTTGAAAGTTGGAAGATATGCCCAATAAATAGAGGTAGGAATAAAATGGCAA (dsDNA) | allR full length assumed | BLI | double-stranded DNA, one strand shown |  | 423 |
| TTGATAAGAGGTCATTTTTGCGGATGGCTTAGAGCTTAATTGCTGAATCTGGTGCTGTAGCTCAACATGTTTTAAATATGCAA (ssDNA) | MGM101 23-269 K218A (Saccharomyces cerevisiae, UniProt P32787) | fluorescence polarization | single-stranded DNA |  | 1200 ± 100 |
| ACCAGCCCATATAAATGTCACTGTGCCTCTAACTCTCAAGTCAATCGGTCC (dsDNA; 5'-amino-C6 primer) | SPT15/TOA1/TOA2/SUA7 1-240; 1-286; 1-122; 1-345 | array | double-stranded DNA, one strand shown | TBP:TFIIA:TFIIB ternary complex | 3 ± 0.43 |
| GACCGGAAGTGG (dsDNA) | ERF 22-140 C72S (Homo sapiens, UniProt P50548) | fluorescence anisotropy | double-stranded DNA, one strand shown | 50 nM DNA | 90 ± 16 |
| GTTCCTGAATATAAAAGGGGGGGGCGGGGTGGGGGTCAAGTCAATCGGTCC (dsDNA; 5'-amino-C6 primer) | SPT15/TOA1/TOA2/SUA7 1-240; 1-286; 1-122; 1-345 | array | double-stranded DNA, one strand shown | TBP:TFIIA:TFIIB ternary complex | 2.68 ± 0.33 |
| DNA 1 GGATCTCGACGCTCTCCCTT / DNA 2 GAGAGCGTCGAGATCC (dsDNA; 3' 4-nt overhang, blunt end) | RECQL | fluorescence anisotropy | double-stranded DNA | Mg2+ 5 mM, without ADPNP | 528 ± 50 |
| TGACGTAGATTCGAATCGTTAGTGAGAGCTTAATTGCTGAATCTGGTG (ssDNA) | MGM101 23-269 (Saccharomyces cerevisiae, UniProt P32787) | fluorescence polarization | single-stranded DNA |  | 540 ± 110 |

A few entries again:
| Oligonucleotide | target | test | test system | setting | Kd [nM] |
| --- | --- | --- | --- | --- | --- |
| TTTTTTTTTTTTTTTTTTTTTTTTTTTTTTTTTTTTTTTTTTTTTTTTTTTTTTTTTTTTTTTTTTTTTT (ssDNA) | RAD51 full length assumed Y253K (Saccharomyces cerevisiae, UniProt P25454) | fluorescence anisotropy | single-stranded DNA | apparent, Hill fit, added: ATP | 710 ± 70 |
| GAGGGAGGGAGG (dsDNA) | Fibroin-modulator-binding protein-1 | ITC | double-stranded DNA, one strand shown |  | 10100 |
| TAAGACACGATGCGATAAAATCTG (dsDNA) | CGAS 1-522 (Homo sapiens, UniProt Q8N884) | fluorescence anisotropy | double-stranded DNA, one strand shown |  | 80 ± 5.6 |
